Published values pooled from the literature.
Numbered parts are unrelated; each lists some results of a single study. Positions count from the first letter of the parent shown.

Study 1
Target: Fragile X messenger ribonucleoprotein 1, C-terminal low-complexity region (Fmr1, Mus musculus, UniProt P35922)
Technique: RNA Bind-n-Seq
Molecule type: RNA
Medium: in vitro
Tested at: 200 nM
Notes: whole 134-nt RNA, ends assumed
With: 150 mM KCl
Relative to: input library
Direction: higher = stronger binding
Constant ends, left off below: GGGAGUUCUACAGUCCGACGAUC … UGGAAUUCUCGGGUGUCAAGG
The log2 enrichment of `CAAGUCCUGUGCUACACAUCGUAUGUACCGAAUCGGGGCCCGGGCCCGGGCCCGGGAAAGUAUUAUGUUACGCCGUUCGGAUCUGCACUU` is reported as -0.745.
The log2 enrichment of `AAGUCCUGUGCUACACAUCGUAUGUACCGAAUCGGUUUUUGGAAAGGUUUUUUUGGAAAGUAUUAUGUUACGCCGUUCGGAUCUGCACUU` is reported as -1.12.
`AGUCCUGUGCUACACAUCGUAUGUACCGAAUCGGGAAAGGGAAAAAGGGUUUUUGGGAAAGUAUUAUGUUACGCCGUUCGGAUCUGCACU` has a log2 enrichment of 0.0108.
The log2 enrichment of `AAGUCCUGUGCUACACAUCGUAUGUACCGAAUCGGGGAAAAGGGAAAAGGAAAAGGAAAGUAUUAUGUUACGCCGUUCGGAUCUGCACUU` is reported as -0.525.
With `AGUCCUGUGCUACACAUCGUAUGUACCGAAUCGGGAAAAAGGGUGGGAAAAAAAGGGAAAGUAUUAUGUUACGCCGUUCGGAUCUGCACU` the log2 enrichment was 0.144.
`GUCCUGUGCUACACAUCGUAUGUACCGAAUCGGUUUUUUGGUUUUUUGGUUUUUUGGGAAAGUAUUAUGUUACGCCGUUCGGAUCUGCAC` gave a log2 enrichment of -0.828.
With `CUGUGCUACACAUCGUAUGUACCGAAUCGGGGAAAAAAAGGGAAAAAAAGGAAAAAAAGGGAAAGUAUUAUGUUACGCCGUUCGGAUCUG` the log2 enrichment was -1.02.
For `CAAGUCCUGUGCUACACAUCGUAUGUACCGAAUCGGUUUUUGGUUUUUGGAAAGGAAAGUAUUAUGUUACGCCGUUCGGAUCUGCACUUC`, the log2 enrichment was -0.761.
`UCAAGUCCUGUGCUACACAUCGUAUGUACCGAAUCGGAAAGGGGAAAGGGAAAGGAAAGUAUUAUGUUACGCCGUUCGGAUCUGCACUUC` gave a log2 enrichment of -0.56.
`UCCUGUGCUACACAUCGUAUGUACCGAAUCGGAAAAAAGGAAAAAAGGGGAAAAAAGGGAAAGUAUUAUGUUACGCCGUUCGGAUCUGCA` gave a log2 enrichment of -0.442.
For `CAAGUCCUGUGCUACACAUCGUAUGUACCGAAUCGGGUUUGGGUUUGGGUUUGGGGAAAGUAUUAUGUUACGCCGUUCGGAUCUGCACUU`, the log2 enrichment was 1.07.
`UGGGAGGUGGAUUUAGUUUAUUUUUUUAGCUCAUUUCCAGGGGUGGGAAUUUUUUUUUAAUAUGUGUCAUGAAUAAAGUUGUUUUUGAAA` has a log2 enrichment of 0.215.
With `CUCAGACAACACGCACCCACACAGACACAGAGGGAAGGGGUUGGGAUGGGGACAGGGUGCACAGCAGGGCGGGGUAGGACCCCAGCCCCU` the log2 enrichment was 1.42.
The log2 enrichment of `CCUCAAGUCCUGUGCUACACAUCGUAUGUACCGAAUCGGGAAGGAAGGGAAGGAAAGUAUUAUGUUACGCCGUUCGGAUCUGCACUUCCA` is reported as -0.188.

Study 2
Target: CCNA1, cyclin fold, Cln2 fusion (human)
Technique: yeast growth competition, sequencing
Medium: yeast
Notes: strong parent motif
Relative to: not given
Direction: higher = stronger binding
Starting sequence: E2F1 docking peptide (human); PPVKRRLDFETDH
Under “normalised enrichment score”, `T11V` is recorded as 1.57.
For `D8E`, “normalised enrichment score” read 1.6.
Under “normalised enrichment score”, `R6E` is recorded as 1.09.
`K4G`: “normalised enrichment score” 0.729.
`E10H` — result for “normalised enrichment score”: 1.87.
`L7Q`: “normalised enrichment score” 0.201.
Under “normalised enrichment score”, `D12S` is recorded as 1.8.
`K4D` — result for “normalised enrichment score”: 0.289.
For `D8T`, “normalised enrichment score” read 1.7.
`R5I`: “normalised enrichment score” 0.279.
Under “normalised enrichment score”, `D12Q` is recorded as 1.85.
For `L7H`, “normalised enrichment score” read 0.35.
`L7M`: “normalised enrichment score” 0.369.
For `L7Y`, “normalised enrichment score” read 0.0928.
Under “normalised enrichment score”, `F9T` is recorded as 0.184.
For `L7F`, “normalised enrichment score” read -0.0379.
Under “normalised enrichment score”, `K4C` is recorded as 0.884.

Study 3
Target: RNA binding protein fox-1 homolog 2, RRM domain, GST-SBP tag (RBFOX2, Homo sapiens, UniProt O43251-10, residues 100-194)
Technique: RNA Bind-n-Seq
Molecule type: RNA
Medium: in vitro
Tested at: 365 nM
Notes: natural RNA segment, single round, ends assumed
Relative to: no-protein control
Direction: higher = stronger binding
Constant ends, left off below: GGGAGUUCUACAGUCCGACGAUC … UGGAAUUCUCGGGUGCCAA
Residues (chain): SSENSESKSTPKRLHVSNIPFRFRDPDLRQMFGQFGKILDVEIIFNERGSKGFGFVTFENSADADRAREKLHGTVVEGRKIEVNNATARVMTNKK
For `GUCUACAAGUUUCUACUUUCUUGUUUGAUUGAGCAAAGUCUCCUAGUGACAGCAACACCAUGAAUUUUACUUCUCUUGGGUGGUUCUGGGAAUGGGAGAGGGGCAAGCUG`, “RBNS enrichment (R)” read 0.387.
Under “RBNS enrichment (R)”, `GUGCUAUUUUACAUCUGUUCGUUAAAGUAUUAAGUAAUUUAAUGACCCCAAGAGUACCAGAUUCUGUGAGUGUGGUUGUAUACGUAAGAACUGCCCUGUUUGGAGGUUAU` is recorded as 0.57.
For `UUUUCUCUAAAUUUUGCCUCUAGGAAAAAAUUAAAACUAUUCAAUGACAGCUAGCUGUCACUGGUGCUACCCCAAAGCUUUCCAAUCUUUUAUGUAUUUUUUGUGAAUGA`, “RBNS enrichment (R)” read 0.997.
Under “RBNS enrichment (R)”, `CACCUGCAUGGGCAAGUGGUUCGCCAGCCGCCAGGACCCCCUGCGCCCUGACACCUGGCUGGCCAGCCGCGUGCCCUGCCCCACCUGCCGCGCACGCUUCUGCAUCCUGG` is recorded as 5.56.
`CUAGAUGGAGACAGAAUAACUGACUUGAACAUACAGUGUGCCUGUAAGUGUCCAGGCUCAGAGCUGGUGAAAACCCUUCUGUUGGGCGUGUGCAGGGUUAAACUCCUGAA`: “RBNS enrichment (R)” 0.271.
For `CUAGCUACCAGUGCCUCCCAAUGCUUAGUGCACAGUACUGUAGACUGGCCAUCACCCCUCUCCUUGGAAAAUGCCACUGUGCUGUUUGAAAAAAAGCAGCCUUUUAGGGC`, “RBNS enrichment (R)” read 0.744.
Under “RBNS enrichment (R)”, `UUUCUGAUCCUUUCCCCUGCCUGGUCUAGCUCCUCUCCAAACAGCCAUGCCCUCCAAAUGCUAGAGACCUGGGCCCUGAACCCUGUAGACAGAUGCCCUCAGAAUUGGGG` is recorded as 0.515.
`CCUCUGGGAGCUGGAGAAUCGCUCUGGUGGAUGGGUGUACAGAUUUGUAUAUAAUGUCAUUUUUACGGAAACCCUUUCGGCGUGCAUAAGGAAUCACUGUGUACAAACUG` — result for “RBNS enrichment (R)”: 0.31.
`AAAAUACAAGCUAGUGCUUUGUCUUAGUAGUUUUAAGAAAUUAAAGCAAACAAAUUUAAGUUUUCUUGUAUUGAAAAUAACCUAUGAUUGUAUGUUUUGCAUUCCUAGAA`: “RBNS enrichment (R)” 0.434.
`CGAACAGGGCGAAGAGCUGGUUAGGGUCAGACAACCUCGGUGGCCUGUGUGUCACUUCCCUCACCUCACAGGCUGUGACCCUACCCUGGGUCCCUUGUACAUAACUCCUU`: “RBNS enrichment (R)” 0.27.
`AUGUAUUAUAAAUACCUGUAACCAAAAUCAUUUGAAGGCUUGAUAAAUUUUUAACAAAGUUUGUACAUUUUUUAUGAAAGUUACUAGUAAUGCUUUACUAAGUAGUGCAA`: “RBNS enrichment (R)” 0.505.
Under “RBNS enrichment (R)”, `CUUGGGAGAGAAGCCAUUUCCCCUACCUCUAACGAGCGUAGUUUUCUGUCUGAAUGGCCCCCCUUUUCAUGCACGCUCGUUCUUAAGAGACGCACCAUCCGCAGGCAGCG` is recorded as 0.716.

Study 4
Target: Interferon regulatory factor 5, full length, phosphomimetic (IRF5, Homo sapiens, UniProt Q13568-2, residues 1-514, S451D/S453D/S456D/S462D)
Technique: protein-binding microarray
Molecule type: double-stranded DNA, one strand shown
Medium: in vitro
Tested at: 940 nM top
Notes: 60-bp whole probe
With: salmon DNA 0.4 mg/ml
Relative to: random background probes
Direction: higher = stronger binding
Constant ends, left off below: GCCTAGCAC … GTCTTGATTCGCTTGACGCTGCTG
For `GACGGTTTCGGGTATCGGCACGTGCTA`, “fitted relative affinity” read 9 z-score.
`GTCGGTATCGGTTTCGGGACGTGCTAG`: “fitted relative affinity” 13.1 z-score.
Under “fitted relative affinity”, `TAAGTTTCACTTTCCAAAGCGTGCTAG` is recorded as 9.46 z-score.
For `GGCGATTTCGGGTATCGAGACGTGCTA`, “fitted relative affinity” read 1.61 z-score.
For `ATGGCTTTGCCTTTTGCTTTGTGCTAG`, “fitted relative affinity” read -0.678 z-score.
For `GAAGATGTGTATATGACAATGTGCTAG`, “fitted relative affinity” read -0.286 z-score.
`GATGGTATCCTTCTCCTGACGTGCTAG`: “fitted relative affinity” 0.614 z-score.
`TCTCTTTCCTTACTTCCCAATGTGCTA` — result for “fitted relative affinity”: 3.7 z-score.
`GACGGTATCGGTCTCGGGTCGTGCTAG`: “fitted relative affinity” 9.38 z-score.
`TGGGAAATTCCTCTGAATAGGTGCTAG`: “fitted relative affinity” -0.276 z-score.
Under “fitted relative affinity”, `TTAGTTTTCGGGTATCGATTAGTGCTA` is recorded as 5.25 z-score.
For `GACGATATCGGGACTGGTGACGTGCTA`, “fitted relative affinity” read -0.404 z-score.
`GACGGTTTCGACTATCGAGACGTGCTA`: “fitted relative affinity” 7.88 z-score.
For `TCACACATCTCACTCTAACTGTGCTAG`, “fitted relative affinity” read 1.25 z-score.
`GACGGTTTCCTTTTGCTGACGTGCTAG` — result for “fitted relative affinity”: 1.99 z-score.
`GACGGTCTCCTTATCCTGAGGTGCTAG` — result for “fitted relative affinity”: 0.226 z-score.
`AACGGACTGGGGACTGGGGACGTGCTA` — result for “fitted relative affinity”: -0.16 z-score.
`TTAGGAATGGACACTGGGTTAGTGCTA` — result for “fitted relative affinity”: -0.254 z-score.
For `GACGGTAGCGGGTTTCGGGACGTGCTA`, “fitted relative affinity” read 2.13 z-score.
For `TTAGGTATCGCTATCGGTTAGTGCTAG`, “fitted relative affinity” read 4.92 z-score.

Study 5
Target: ABI1, truncated, D143A, DHFR fusion (Arabidopsis thaliana)
Technique: DHFR PCA, deep sequencing
Medium: yeast
Notes: methotrexate growth selection, single substitutions
With: (+)-ABA 0.39 µM
Relative to: wild-type fitted maximum
Direction: higher = stronger binding
Starting sequence: PYL1, truncated, DHFR fusion (Arabidopsis thaliana); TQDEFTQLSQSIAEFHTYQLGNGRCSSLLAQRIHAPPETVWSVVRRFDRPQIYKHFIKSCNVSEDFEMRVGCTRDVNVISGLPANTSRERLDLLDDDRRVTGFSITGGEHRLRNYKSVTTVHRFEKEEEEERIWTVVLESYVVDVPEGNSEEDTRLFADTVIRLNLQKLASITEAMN
`C25K`: “relative binding score” -18.4%.
For `F5V`, “relative binding score” read 40.5%.
Under “relative binding score”, `Q10T` is recorded as 43.8%.
`T173L`: “relative binding score” -8.19%.
`R132Y` — result for “relative binding score”: 20.2%.
For `L93T`, “relative binding score” read 7.87%.
`R49F`: “relative binding score” -6.63%.
Under “relative binding score”, `Y18I` is recorded as 0.845%.
`D96K`: “relative binding score” -9.61%.
For `I133E`, “relative binding score” read 74.1%.
`D3G`: “relative binding score” 23.3%.
Under “relative binding score”, `V137N` is recorded as 5.21%.
Under “relative binding score”, `S26E` is recorded as -8.9%.
`G81N`: “relative binding score” 17.1%.

A few entries again (study 5):
Under “relative binding score”, `Q10T` is recorded as 43.8%.
For `I133E`, “relative binding score” read 74.1%.
`C25K`: “relative binding score” -18.4%.
`D96K`: “relative binding score” -9.61%.
`D3G`: “relative binding score” 23.3%.
Under “relative binding score”, `V137N` is recorded as 5.21%.
`G81N`: “relative binding score” 17.1%.
